Results from different studies.
A part holds a random share of what one study measured. Positions count from the first letter of the parent shown.

Study 1 — technique: competition protein-binding microarray; form: double-stranded DNA, one strand shown; matrix: in vitro; concentration: 2 µM; added: Cbf1 competitor, 0.05 µM; reading: higher = stronger binding; measurement: fluorescence intensity; constant ends, left off below: … GTCTTGATTCGCTTGACGCTGCTG
Target: Phosphate system positive regulatory protein PHO4, full length, GST-tagged (PHO4, Saccharomyces cerevisiae, UniProt P07270, residues 1-312)
Setting: whole 60-bp probe, lowest competitor level
Construct (chain): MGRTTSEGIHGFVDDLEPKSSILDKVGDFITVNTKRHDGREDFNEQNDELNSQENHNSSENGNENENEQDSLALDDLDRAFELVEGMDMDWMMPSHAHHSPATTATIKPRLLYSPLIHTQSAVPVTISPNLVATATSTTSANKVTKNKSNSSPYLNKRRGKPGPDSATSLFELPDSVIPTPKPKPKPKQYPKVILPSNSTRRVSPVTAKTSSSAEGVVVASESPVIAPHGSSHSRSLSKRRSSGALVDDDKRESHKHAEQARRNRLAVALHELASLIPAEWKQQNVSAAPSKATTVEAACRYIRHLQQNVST
Sequence = AAGTGTCCTGCATTCCATGTGAAAGTTAAATAATCT; result = 5190 a.u.
Sequence = GAATTGGTAGAACTGGTCGTGCCAGTAACACCGGTC; result = 5460 a.u.
Sequence = AAATTACTAAGTTGACTGGTGGGTGACGCCGTATGA; result = 3880 a.u.
Sequence = CCAAGCGTTCAAGTCAGTGTGACGGACACCAGAGTA; result = 3900 a.u.
Sequence = CTAACGAAGGTTTGATACGTGGGTGACAAGCCAAGT; result = 6220 a.u.
Sequence = AGGCGCGCGCAAAAGCACGCACGGATTGACCGGAGC; result = 8020 a.u.
Sequence = AAATTACTAAGTTGTCACGGCACTTACCCCGTATGA; result = 3780 a.u.
Sequence = CTTTCCCGATCTTGAGAGGTGGGTGTAGCACATTTG; result = 4010 a.u.
Sequence = GTTGGGCCACCGGGACCCATGTCTGCGTCCGCGATA; result = 3620 a.u.
Sequence = TGCGCAACAACTTTTCACGTGTCTTTATGTCTAGAA; result = 14200 a.u.
Sequence = TGGAAAGCTTGATGACATGTGATAGCACACCATGCT; result = 9710 a.u.
Sequence = GCCAGCCGGTGCGGCCACGTGTTGAATCTTGACTTT; result = 17800 a.u.
Sequence = CACAATGTGCGGAATCACCTGCCTGTTTCAATAATG; result = 6780 a.u.
Sequence = TTACTGCGATTATCGCACGGGTGTGGAGGTGTCGCT; result = 8420 a.u.
Sequence = CGATGAAATCTTCTTCACGTTCAACTTGTCTGATAC; result = 6590 a.u.
Sequence = CCTGCTGGCCTGTACGACGTGCAAACATTCCATCGC; result = 5400 a.u.
Sequence = AAAGCGGTAATTTGTATTGTGGGTGCAGATATCTAT; result = 4290 a.u.
Sequence = CTTTGTTTTTAACATCACATGTTGTTTCCATCAGAA; result = 9010 a.u.
Sequence = TCACAGTATTTTTTTCACGTGCTTTTTTTTCAAGGC; result = 15700 a.u.
Sequence = AAGAAGATTTACTCTCCCGTGATGGCGGGCCAATCA; result = 3780 a.u.
Sequence = CCGTCGCCACAGAAGCGCGTGGACGCAGGATCGCGC; result = 9860 a.u.
Sequence = CTTCTGTAAATTTACCACGTGTTTTGACGCGCCCCG; result = 17700 a.u.
Sequence = CGGTGATAGCGGTTTCACGTGTGTTGATTGTGGTAC; result = 11500 a.u.
Sequence = CGTTAAGTAGCCCATCACGCAGCAAGACCGCGGCCC; result = 6040 a.u.

Study 2 — technique: universal PBM; form: double-stranded DNA, one strand shown; matrix: in vitro; concentration: 600 nM; reading: higher = stronger binding; measurement: E-score
Target: Sal-like protein 4, full length isoform A (SALL4, Homo sapiens, UniProt Q9UJQ4, residues 1-1053)
UniProt Q9UJQ4, sequence (whole entry, looked up): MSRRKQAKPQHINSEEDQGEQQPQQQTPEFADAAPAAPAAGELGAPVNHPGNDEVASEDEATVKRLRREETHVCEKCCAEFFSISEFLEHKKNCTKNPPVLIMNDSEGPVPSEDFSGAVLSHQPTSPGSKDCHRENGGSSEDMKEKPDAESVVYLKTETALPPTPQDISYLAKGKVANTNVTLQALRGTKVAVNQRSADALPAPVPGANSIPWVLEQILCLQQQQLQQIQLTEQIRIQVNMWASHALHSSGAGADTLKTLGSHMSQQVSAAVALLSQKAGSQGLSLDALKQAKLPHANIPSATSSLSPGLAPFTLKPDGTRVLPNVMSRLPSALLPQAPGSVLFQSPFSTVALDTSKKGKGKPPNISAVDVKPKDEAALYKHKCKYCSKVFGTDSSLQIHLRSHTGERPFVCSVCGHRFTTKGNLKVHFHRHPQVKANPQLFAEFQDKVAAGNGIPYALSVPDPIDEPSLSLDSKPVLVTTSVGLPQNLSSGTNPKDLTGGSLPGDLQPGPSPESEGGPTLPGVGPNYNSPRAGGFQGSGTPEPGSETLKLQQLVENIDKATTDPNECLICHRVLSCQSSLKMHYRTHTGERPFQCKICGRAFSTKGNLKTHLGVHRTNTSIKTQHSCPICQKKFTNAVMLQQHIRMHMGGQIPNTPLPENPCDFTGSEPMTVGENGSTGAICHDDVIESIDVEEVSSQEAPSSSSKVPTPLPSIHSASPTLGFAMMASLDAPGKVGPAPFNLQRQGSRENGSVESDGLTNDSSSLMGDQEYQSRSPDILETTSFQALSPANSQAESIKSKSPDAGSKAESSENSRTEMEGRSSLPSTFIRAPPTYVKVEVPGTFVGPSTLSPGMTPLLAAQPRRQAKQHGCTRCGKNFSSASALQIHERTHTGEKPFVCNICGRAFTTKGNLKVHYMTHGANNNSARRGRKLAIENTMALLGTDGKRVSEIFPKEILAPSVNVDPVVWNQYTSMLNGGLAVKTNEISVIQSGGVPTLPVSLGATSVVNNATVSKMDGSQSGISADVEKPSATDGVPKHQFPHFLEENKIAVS
Setting: 8-mer, flanks averaged, mean of replicates
Sequence = ATGCATTC; result = 0.188
Sequence = CTGTTCCC; result = -0.2
Sequence = ACCTACGT; result = 0.00105
Sequence = GTATTTTA; result = 0.341
Sequence = GCTGGCCA; result = -0.242
Sequence = AGCGTTAC; result = -0.0235
Sequence = GGTACTAA; result = -0.0317
Sequence = CTTATGTC; result = 0.0251
Sequence = ACGGCGGC; result = -0.377
Sequence = ATTTTTAC; result = 0.392
Sequence = GACAGTCA; result = -0.085
Sequence = AGCGCAAG; result = -0.144
Sequence = ACGAACGA; result = 0.0547
Sequence = GAGTAACC; result = -0.0756
Sequence = GACGCTAA; result = -0.144
Sequence = AGATGCCT; result = 0.0321
Sequence = AGCGCTTG; result = -0.172
Sequence = ACTTCCCC; result = -0.175
Sequence = CAAGAATG; result = -0.0267
Sequence = CACTACTG; result = -0.0556
Sequence = CCGTGGCC; result = -0.368
Sequence = AGGCAGCG; result = -0.295
Sequence = CATGCAAG; result = -0.0218

Study 3 — technique: RNAcompete; form: RNA; matrix: in vitro; concentration: 20 nM; setting: 7-mer, probes averaged, single round; relative to: mean of 7-mers; reading: higher = stronger binding; measurement: 7-mer Z-score
Target: PABPC1L2, full length, GST fusion (mouse, UniProt A0ABA7IW68)
Construct (chain): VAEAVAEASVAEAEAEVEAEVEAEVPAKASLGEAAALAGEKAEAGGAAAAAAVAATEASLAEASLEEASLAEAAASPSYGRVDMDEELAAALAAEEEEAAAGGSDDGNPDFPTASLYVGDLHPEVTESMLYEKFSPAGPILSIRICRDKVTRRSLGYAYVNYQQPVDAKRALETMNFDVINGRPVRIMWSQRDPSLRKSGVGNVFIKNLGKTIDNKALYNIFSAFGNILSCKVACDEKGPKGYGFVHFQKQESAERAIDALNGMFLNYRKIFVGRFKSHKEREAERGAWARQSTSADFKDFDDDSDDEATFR
Sequence = AAAGUCA; result = 1.27
Sequence = GCGGAAA; result = 1.08
Sequence = UCUACUA; result = -0.273
Sequence = GUGCUUU; result = -0.0899
Sequence = GCGCACG; result = -0.115
Sequence = AUCAGUA; result = -0.0518
Sequence = CUUGCGC; result = -0.291
Sequence = CGACCGG; result = -0.103
Sequence = AAUGGCA; result = 0.298
Sequence = AUAAAUA; result = 4.22
Sequence = CCACAUC; result = -0.233
Sequence = ACCUUUC; result = -0.383
Sequence = UAGUAAG; result = -0.0772
Sequence = CACGCUA; result = -0.249
Sequence = AAUCCUC; result = -0.257
Sequence = UUGACCC; result = -0.237
Sequence = AAAAGUC; result = 4.01
Sequence = GCACAUC; result = -0.155
Sequence = CGUGGUU; result = -0.18
Sequence = GUGUUGU; result = -0.344
Sequence = CAUGAGA; result = 0.0406
Sequence = UGACAGG; result = 0.115

Study 4 — technique: protein binding microarray; form: double-stranded DNA, one strand shown; matrix: in vitro; concentration: not given; relative to: not given; reading: higher = stronger binding; measurement: E-score
Target: Histone acetyltransferase KAT6A, winged helix 1, GST fusion (KAT6A, Homo sapiens, UniProt Q92794, residues 1-85)
Setting: 8-mer, flanks averaged, mean of 2 arrays, mostly near background
Residues (chain): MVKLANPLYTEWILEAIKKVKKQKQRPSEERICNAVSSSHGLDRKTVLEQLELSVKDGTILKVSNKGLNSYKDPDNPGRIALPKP
Sequence = CCTGAGGA; result = -0.115
Sequence = AAGTCTAA; result = -0.107
Sequence = AGGACGGG; result = 0.19
Sequence = CGACCGAC; result = 0.191
Sequence = GGAGCGTA; result = 0.191
Sequence = CCCAATAG; result = -0.206
Sequence = GATCTATA; result = -0.0978
Sequence = CTCGGAAG; result = 0.00602
Sequence = GTCTAACA; result = -0.0173
Sequence = AATAAGCT; result = 0.0306
Sequence = CGCATGTC; result = 0.206
Sequence = AGTGAGAA; result = -0.156
Sequence = ACAAAGAT; result = -0.202
Sequence = TGATACAA; result = -0.0535
Sequence = ACGGGGCT; result = 0.157
Sequence = CTCGGCTC; result = 0.0926
Sequence = AGCGAGAA; result = -0.126
Sequence = ACACGAGC; result = -0.141
Sequence = CAGGCTAC; result = -0.199
Sequence = AAAGGTCT; result = -0.0729
Sequence = TGGCGTAA; result = -0.00245
Sequence = CGAATTGA; result = -0.167

Study 5 — target: CREBZF, bZIP domain (human); technique: DHFR protein complementation; matrix: yeast; relative to: wild-type JUN-FOS pair; reading: higher = stronger binding; measurement: binding fitness
Setting: single substitutions, most at no-binding floor
Starting sequence: JUN, bZIP domain (human); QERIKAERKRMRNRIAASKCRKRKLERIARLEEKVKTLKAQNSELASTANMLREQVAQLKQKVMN; partner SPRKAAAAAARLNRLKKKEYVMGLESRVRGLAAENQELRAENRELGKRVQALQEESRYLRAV
Variant = T37Y; result = -1.48 natural log
Variant = V35H; result = -1.51 natural log
Variant = A40L; result = -1.5 natural log
Variant = K39G; result = -1.4 natural log
Variant = Q41R; result = -1.45 natural log
Variant = L52T; result = -1.52 natural log
Variant = L52F; result = -1.58 natural log
Variant = I28G; result = -1.5 natural log
Variant = N42G; result = -1.46 natural log
Variant = E33M; result = -1.54 natural log
Variant = K34E; result = -1.52 natural log
Variant = L38E; result = -1.53 natural log
Variant = E44V; result = -1.42 natural log
Variant = E54G; result = -1.36 natural log
Variant = Q55M; result = -1.23 natural log
Variant = M51D; result = -1.35 natural log
Variant = E44H; result = -1.48 natural log
Variant = A46Y; result = -1.15 natural log
Variant = R30Q; result = -1.48 natural log
Variant = L52Y; result = -1.45 natural log
Variant = A49N; result = -1.59 natural log
Variant = K36P; result = -1.52 natural log

Study 6 — technique: RNA Bind-n-Seq; form: RNA; matrix: in vitro; concentration: 200 nM; setting: whole 134-nt RNA, ends assumed; added: 150 mM LiCl; relative to: input library; reading: higher = stronger binding; measurement: log2 enrichment; library: 7-deaza-guanosine replaces G
Target: Ras GTPase-activating protein-binding protein 1, full length (G3BP1, Homo sapiens, UniProt Q13283)
UniProt Q13283, sequence (whole entry, looked up): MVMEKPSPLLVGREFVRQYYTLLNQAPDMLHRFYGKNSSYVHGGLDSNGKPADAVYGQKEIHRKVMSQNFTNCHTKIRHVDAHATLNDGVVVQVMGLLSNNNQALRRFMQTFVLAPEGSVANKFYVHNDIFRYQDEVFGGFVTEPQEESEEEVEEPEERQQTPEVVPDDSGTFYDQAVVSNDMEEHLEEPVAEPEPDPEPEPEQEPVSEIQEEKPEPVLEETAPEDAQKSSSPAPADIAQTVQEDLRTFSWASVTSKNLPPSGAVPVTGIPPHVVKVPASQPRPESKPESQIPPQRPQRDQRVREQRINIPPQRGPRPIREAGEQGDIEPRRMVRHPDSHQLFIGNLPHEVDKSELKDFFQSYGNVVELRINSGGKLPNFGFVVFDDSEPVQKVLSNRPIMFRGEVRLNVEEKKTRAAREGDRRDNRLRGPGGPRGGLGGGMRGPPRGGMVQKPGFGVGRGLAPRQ
Constant ends, left off below: GGGAGUUCUACAGUCCGACGAUC … UGGAAUUCUCGGGUGUCAAGG
Sequence = AGUCCUGUGCUACACAUCGUAUGUACCGAAUCGGGGUUUUUGGGGUUUGGGGAGGGGAAAGUAUUAUGUUACGCCGUUCGGAUCUGCACU; result = -0.195
Sequence = UCCUCAAGUCCUGUGCUACACAUCGUAUGUACCGAAUCGGGAGGAGGGAGGGAAAGUAUUAUGUUACGCCGUUCGGAUCUGCACUUCCAG; result = -0.312
Sequence = CCUCAAGUCCUGUGCUACACAUCGUAUGUACCGAAUCGGUUGGUUGGUUGGGAAAGUAUUAUGUUACGCCGUUCGGAUCUGCACUUCCAG; result = 0.705
Sequence = AGUCCUGUGCUACACAUCGUAUGUACCGAAUCGGGAAAAAGGAAAAAGGAAAAAGGGGAAAGUAUUAUGUUACGCCGUUCGGAUCUGCAC; result = -0.321
Sequence = CACAGACAACACGCACCCACACAGACACAGAGGGAAGGGGUUGGGAUGGGGACAGGGUGCACAGCAGGGCGGGAUAGGACCCCAGCCCCU; result = 0.785
Sequence = UGGGAGGUGGAUUUUGUUUAUUUUUUUAGCUCAUUUCCAGGGGUGGGAAUUUUUUUUUAAUAUGUAUCAUGAAUAAAGUUGUUUUUGAAA; result = -0.359
Sequence = UGGCCCUGGUGGCAUGCGGGGAGGAAGAGGUGGCCUCAUGGAUCGUGGUGGUCCCGGUGGAAUGUUCAGAGGUCGCCGUGGUGGAGACAG; result = 0.345
Sequence = UGGCCCUGGUGGCAUGCGGGGAGGAAGAGGUGGCCUCACGGAUCGUGGUGGUCCCGGUGGAAUGUUCAGAGGUGGCCGUGGUGGAGACAG; result = 0.561
Sequence = CAAGUCCUGUGCUACACAUCGUAUGUACCGAAUCGGGGUUUGGGGAGGGGUGGGGAAAGUAUUAUGUUACGCCGUUCGGAUCUGCACUUC; result = -0.0896
Sequence = CCUGUGCUACACAUCGUAUGUACCGAAUCGGGUUUUUUGGGGUUUUUUGGGGUUUUUUGGAAAGUAUUAUGUUACGCCGUUCGGAUCUGC; result = 1.06
Sequence = GCAUAAUGGAUAUUUUUUAACUUGGCGAGAUGUGUCUCUCAAUCCUGUGGCUUUGGUGAGAGAGUGUGCAGAGAGCAAUGAUAGCAAAUA; result = 0.781

For quick reference, copied from above (study 5):
Variant = A46Y; result = -1.15 natural log
Variant = N42G; result = -1.46 natural log
Variant = L38E; result = -1.53 natural log
Variant = Q41R; result = -1.45 natural log
Variant = M51D; result = -1.35 natural log
Variant = L52Y; result = -1.45 natural log
Variant = E33M; result = -1.54 natural log
Variant = V35H; result = -1.51 natural log
Variant = K39G; result = -1.4 natural log
